# Results from different studies.
# Parts stem from different laboratories: compare values within a part only. Changes are numbered by the printed parent chain.

# Sample 1
# Target: ABI1, truncated, D143A, DHFR fusion (Arabidopsis thaliana)
# Technique: DHFR PCA, deep sequencing
# Matrix: yeast
# Setting: methotrexate growth selection, single substitutions
# Added: (+)-ABA 0.0091 µM
# Relative to: wild-type fitted maximum
# Reading: higher = stronger binding
# Starting sequence: PYL1, truncated, DHFR fusion (Arabidopsis thaliana); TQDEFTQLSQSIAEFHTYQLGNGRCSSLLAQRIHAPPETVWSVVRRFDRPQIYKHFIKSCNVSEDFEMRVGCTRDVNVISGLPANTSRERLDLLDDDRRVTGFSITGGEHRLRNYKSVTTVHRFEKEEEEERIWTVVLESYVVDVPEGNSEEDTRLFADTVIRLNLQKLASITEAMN
Variant,relative binding score
S26M,3.48%
E151L,23.5%
F15N,-0.966%
D75Q,18.6%
G23Y,0.568%
T160R,-2.23%
L91V,8.23%
I133V,59.2%
E127F,20%
I52R,6.62%
L166C,-4.19%
K54G,-2.33%
A175N,26.3%
A30N,2.97%
T135E,-4.54%
T119W,-4.56%
L93P,6.45%
T160F,55.3%

# Sample 2
# Target: RING finger protein unkempt homolog, zinc fingers 1-6, GST-SBP tag (UNK, Homo sapiens, UniProt Q9C0B0, residues 30-357)
# Chain of UniProt Q9C0B0 (30-357, looked up): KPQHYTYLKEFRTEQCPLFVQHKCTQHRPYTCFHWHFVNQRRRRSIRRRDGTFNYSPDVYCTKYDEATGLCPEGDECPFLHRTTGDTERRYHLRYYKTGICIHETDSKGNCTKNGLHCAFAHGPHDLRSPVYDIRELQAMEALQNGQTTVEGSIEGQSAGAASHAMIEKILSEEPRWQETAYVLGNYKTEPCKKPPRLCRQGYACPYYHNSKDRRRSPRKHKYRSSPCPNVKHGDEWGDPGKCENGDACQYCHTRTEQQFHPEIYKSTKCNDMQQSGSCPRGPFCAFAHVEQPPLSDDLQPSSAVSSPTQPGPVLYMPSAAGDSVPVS
# Technique: RNA Bind-n-Seq
# Molecule type: RNA
# Matrix: in vitro
# Tested at: not given
# Setting: RNA with constant flanks, human and mouse sites, ends assumed
# Relative to: input RNA pool
# Reading: higher = stronger binding
Oligonucleotide,bound/input enrichment
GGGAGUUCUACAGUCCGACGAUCUGUGUCAUCCGAUGCUUAGUAAAGAAAAGAGCUCUUAUUGCAGGAGGUGGUGCUCCAGAAAUAGAGCUGGCCCUCAGACUGACAGAGUACUCCCGAACACUGAGUGGUAUGGAGUCCUACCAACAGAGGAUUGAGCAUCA,0.145 ratio
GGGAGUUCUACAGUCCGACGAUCAGCAUCGUGGUCCUAAUGUGAAGGUUUUACAGGCUCUCUGAAUGGCUGUGAGAAAGCCCAAAGAGAUUGAGUCAUUGUGUAGGAAGCUGCAGAGGAAAGCUUACACUAGCCCUUAAUUAACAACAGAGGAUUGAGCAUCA,0.245 ratio
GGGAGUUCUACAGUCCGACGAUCAGCGGCUGUACCAAGUGGUGGCGCUUUGCCGAGUUUCAGUACCUGCAGCCGGGACCCCCCCGGCGGCUUCAGACAGUGGUGGUGUACCUGCCGGAUGUCUGGACCAUCAUGCCUACUUUGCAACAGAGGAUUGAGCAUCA,0.148 ratio
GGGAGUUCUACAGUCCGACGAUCGGCAAGGUUCGGCUCCUGGCUGAUCCCACUGGGGCCUUUGGGAAGGAGACAGACUUAUUACUAGAUGAUUCGCUGGUGUCCAUCUUUGGGAAUCGACGUCUCAAGAGGUUCUCCAUGGUGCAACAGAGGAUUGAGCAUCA,0.151 ratio
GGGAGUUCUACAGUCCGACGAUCGGGGACCCGGAGCUGCAGCCCAUCCGGAGCUAUGAGAUCGCCAGCUUGGUCCGCACACUCUUUAGGCUGUCGUCUGCCAUCAACCACAGAUUUGCAGGACAGAUGGCGGCUCUGUGUUCCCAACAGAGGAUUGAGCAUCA,0.114 ratio
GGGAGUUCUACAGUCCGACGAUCUGAUAAAACUGACUGUAAAUUAAUUUGGGGAAAGCCAGUAUUGUUAAAAUACCAUUUUAUACAAAAUAAAAAGCUGCUCUCACUGUCAGCUCUCAUAUUCUUCCAGGUUUUGCACUCUACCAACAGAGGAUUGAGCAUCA,0.233 ratio
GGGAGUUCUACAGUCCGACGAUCAAGGGGGAGGUCCCCCCCAAGGAGACCCCCAAGAAGAAGAAGAAAUUCUCUUUCAAGAAGCCUUUCAAAUUGAGCGGCCUGUCCUUCAAGAGAAAUCGGAAGGAGGGUGGGGGUGAUUCUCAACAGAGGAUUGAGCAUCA,0.304 ratio
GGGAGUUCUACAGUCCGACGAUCGAUCGGACUUGUGAAUUAUCUAGAAGAAAUUGUCUGCUGUCCUUUUCUAAUCCGGUGAAUUUAGAUGCCUCCGAAGACAAGGACAGCCCUUUCGGUAAUGGUCAAUCCAAUUUUUCUGAGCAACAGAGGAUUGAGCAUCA,0.155 ratio

# Sample 3
# Target: Interferon regulatory factor 7, full length, phosphomimetic (IRF7, Homo sapiens, UniProt Q92985, residues 1-503, S101K/S471D/S472D/S475D/S476D/S477D/S483D/S484D/S487D)
# Technique: protein-binding microarray
# Molecule type: double-stranded DNA, one strand shown
# Matrix: in vitro
# Tested at: 250 nM
# Setting: 60-bp whole probe
# Added: salmon DNA 0.4 mg/ml
# Relative to: random background probes
# Reading: higher = stronger binding
# All sequences stand within: GCCTAGCAC … GTCTTGATTCGCTTGACGCTGCTG
# Construct (chain): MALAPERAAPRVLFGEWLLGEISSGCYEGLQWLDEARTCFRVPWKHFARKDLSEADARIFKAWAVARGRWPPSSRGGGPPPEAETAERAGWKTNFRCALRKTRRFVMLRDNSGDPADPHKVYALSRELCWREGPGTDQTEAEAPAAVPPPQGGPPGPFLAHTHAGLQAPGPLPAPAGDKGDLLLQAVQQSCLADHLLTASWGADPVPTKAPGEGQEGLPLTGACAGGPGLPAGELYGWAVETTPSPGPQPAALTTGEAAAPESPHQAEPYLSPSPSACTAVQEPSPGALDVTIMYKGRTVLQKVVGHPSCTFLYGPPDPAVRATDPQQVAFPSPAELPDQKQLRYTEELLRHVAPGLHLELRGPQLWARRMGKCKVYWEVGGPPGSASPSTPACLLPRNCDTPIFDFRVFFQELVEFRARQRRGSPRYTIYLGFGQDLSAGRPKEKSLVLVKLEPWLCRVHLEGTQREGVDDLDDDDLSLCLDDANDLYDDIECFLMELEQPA
Oligonucleotide,log fluorescence [z-score]
TTAGATCTCAGTATCGATGAGTGCTAG,0.231
GCAAGAACAGCTGGTGGGCAGTGCTAG,-0.843
GACGATTTCGGGTTTCGAGAGGTGCTA,3.19
TACGGTTTCGGTATCGGGACGTGCTAG,10.5
GACGATTTCAGTTCCGAGAAGTGCTAG,0.705
TTAGGTTTCGGTTCGGGTTAGTGCTAG,13
TTAGATCGCAGACTGGATTAGTGCTAG,-0.255
TTAGGACTGGGGTTTCGGTCAGTGCTA,0.966
GACGGACTGATACTGCTGACGTGCTAG,-0.459
GACGATCTCTGACTGGAGACGTGCTAG,-0.332
TTCTGAATGCCCTTCCATCACGTGCTA,-0.402
GACGATTTCAGTCACGAGACGTGCTAG,0.123
CCTTGTGTTACTTTCTACTTGTGCTAG,0.441
TTAGGTTCCCTTTACCTTTAGTGCTAG,3.5
TCATCACTCTGTCCCTCACTGTGCTAG,0.159
TTGGGTATCGACACTGGGTTAGTGCTA,-0.469
TGGTAATTCTTTGCTCATTTTGTGCTA,0.52

# Sample 4
# Target: CCNE1, cyclin fold, Cln2 fusion (human)
# Technique: yeast growth competition, sequencing
# Matrix: yeast
# Setting: strong parent motif
# Relative to: not given
# Reading: higher = stronger binding
# Starting sequence: E2F1 docking peptide (human); PPVKRRLDLETDH; partner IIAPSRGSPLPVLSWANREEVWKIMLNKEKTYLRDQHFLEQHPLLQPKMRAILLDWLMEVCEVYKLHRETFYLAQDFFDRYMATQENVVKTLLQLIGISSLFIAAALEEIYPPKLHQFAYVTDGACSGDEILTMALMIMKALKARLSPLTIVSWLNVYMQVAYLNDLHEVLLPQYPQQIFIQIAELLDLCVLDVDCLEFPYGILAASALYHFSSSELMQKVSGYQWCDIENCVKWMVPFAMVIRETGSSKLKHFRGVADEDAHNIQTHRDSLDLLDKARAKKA
Variant,normalised enrichment score
P2F,2.12
E10N,1.98
L7M,0.173
R6L,0.0959
H13K,2.18
L7Q,0.478
E10I,1.14
P1A,1.64
P2I,0.497
R5C,0.303
V3A,1.76
V3Q,0.262
R6N,0.0796
E10F,1.03
L7Y,0.144
E10A,1.75
E10Y,0.667
D8E,1.4

# Sample 5
# Target: CREB3, bZIP domain (human)
# Technique: DHFR protein complementation
# Matrix: yeast
# Setting: single substitutions, most at no-binding floor
# Relative to: wild-type JUN-FOS pair
# Reading: higher = stronger binding
# Starting sequence: JUN, bZIP domain (human); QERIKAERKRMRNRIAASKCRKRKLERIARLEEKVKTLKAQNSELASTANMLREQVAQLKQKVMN; partner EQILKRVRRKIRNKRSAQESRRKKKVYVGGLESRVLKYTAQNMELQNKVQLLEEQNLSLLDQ
Variant,binding fitness [natural log]
K36N,-1.33
T37D,-1.45
L45I,-1.56
Q58R,-1.26
L31R,-1.47
S43Y,-1.52
K34C,-1.49
E32G,-1.42
N42T,-1.54
S43K,-1.41
A29K,-1.46
I28E,-1.47
Q55D,-1.49
M51N,-1.45
E44L,-1.46
K39Y,-1.48
T48R,-1.28
E44Q,-1.32
Q55S,-1.5
E44N,-1.44

# Some of these lines once more (sample 5):
Variant,binding fitness [natural log]
S43K,-1.41
A29K,-1.46
I28E,-1.47
Q55D,-1.49
M51N,-1.45
E44L,-1.46
K39Y,-1.48
T48R,-1.28
E44Q,-1.32
Q55S,-1.5
